# Experimental data of several laboratories.
# Protocols differ between the studies behind these lines. ± marks the error that the study gave.
SMILES,cell line,assay,test system,setting,how to read,quantity,result
O=c1ccc2ccccc2o1,HepG2,item: cell count,,"concentration not given, 1 h, metal stress panel",,probability of response,0.04%
Cc1cc(C(C)(C)c2ccc(O)c(C)c2)ccc1O,"HepG2 spheroids, dissociated",annexin V-FITC/PI flow cytometry,,"1 µM, 24 h",,early apoptotic cells,13.9 ± 1.76%
O=C(O)C(F)(F)C(F)(F)C(F)(F)C(F)(F)C(F)(F)C(F)(F)C(F)(F)C(F)(F)C(F)(F)F,hTERT-RPTEC parental,LDH release,culture medium,"concentration not given, 24 h, 96-well plate",,LDH activity in medium,25.6 mU/mL
CC(C)(Oc1ccc(CCNC(=O)c2ccc(Cl)cc2)cc1)C(=O)O,HEK293-H PPARγ-UAS-bla cells,cell confluency,,"24 h, nominal concentration",reference: baseline IC10 over IC10,toxic ratio,2.6
CC(c1ccccc1)(c1ccc(O)cc1)c1ccc(O)cc1,HepG2 spheroids,annexin V-FITC/PI flow cytometry,,"0.10 µM, 96 h",,necrotic cells,39.1 ± 18%
N=C(N)NCCC[C@H](NC(=O)CN)C(=O)N[C@@H](Cc1c[nH]c2ccccc12)C(=O)N[C@@H](CCCNC(=N)N)C(=O)N[C@@H](Cc1c[nH]c2ccccc12)C(=O)N[C@@H](Cc1c[nH]c2ccccc12)C(=O)N[C@@H](Cc1c[nH]c2ccccc12)C(=O)N[C@@H](CCCNC(=N)N)C(=O)N[C@@H](Cc1c[nH]c2ccccc12)C(=O)N[C@@H](CCCNC(=N)N)C(=O)N[C@@H](Cc1c[nH]c2ccccc12)C(N)=O,HD11 macrophages,,,,,LC50,316 µM
CNC(=O)Oc1cc(C)c(SC)c(C)c1,SH-SY5Y,"cell viability, propidium iodide staining",,"24 h, freely dissolved concentration",,IC10,0.025 µM
O=[N+]([O-])c1ccc(-c2nn(-c3ccccc3)c3sc(NC(c4ccccc4O)P(=O)(Oc4ccccc4)Oc4ccccc4)nc23)cc1 (stereo not shown),Vero cells,SRB,,"0.1 µM, 10% fetal bovine serum",,viability,98.2%
CN(C)CCn1c(C(=O)N2CCN(c3ccccc3Cl)CC2)c(C(c2ccc(O)cc2)c2ccc(O)cc2)c2ccccc21,293T-ACE2,,,40 (unit not given),,CC50,> 2.5 µM
N=C(N)NCCC[C@H](NC(=O)[C@H](CCCNC(=N)N)NC(=O)[C@H](CCCNC(=N)N)NC(=O)[C@H](CCC(N)=O)NC(=O)[C@H](CCCNC(=N)N)NC(=O)[C@H](CCCNC(=N)N)NC(=O)[C@H](CCCCN)NC(=O)[C@H](CCCCN)NC(=O)[C@H](CCCNC(=N)N)NC(=O)CNC(=O)[C@@H](N)Cc1ccc(O)cc1)C(=O)O,DF-1,LDH release,,"25 µM, 1 h",,viability,97.7 ± 9.14%
Oc1ccc(C2(c3ccc(O)cc3)c3ccccc3-c3ccccc32)cc1,"HepG2 spheroids, dissociated",annexin V-FITC/PI flow cytometry,,"10 µM, 96 h",,late apoptotic cells,42.9 ± 2.4%
N#C[C@@]1(n2ccc(N)nc2=O)O[C@H](CO)[C@@H](O)[C@H]1O,CHO,,,"62 µM, without S9",,micronucleated cells,0.22%
CN(C)CCCC1(c2ccc(F)cc2)OCc2cc(C#N)ccc21 (stereo not shown),SH-SY5Y,"cell viability, propidium iodide staining",,"24 h, nominal concentration",,IC10,64.7 µM
Nc1nc(CC(O)c2ccccc2C(F)(F)F)c(Br)c(=O)[nH]1 (stereo not shown),HEL human embryonic lung fibroblasts,cell morphology alteration,,,,minimum cytotoxic concentration,> 100 µM
COC(=O)/C(C)=C\C[C@@]12OC(C)(C)[C@@H]3C[C@@H](C=C4C(=O)c5c(O)c6c(c(CC=C(C)C)c5O[C@]431)O[C@](C)(CCC=C(C)C)C=C6)C2=O,MYBPC3 iPSC cardiomyocytes,cytotoxicity,,24 h,,EC50,15.7 µM
N=C(N)NCCC[C@H](NC(=O)[C@H](CCCNC(=N)N)NC(=O)[C@H](CCCCN)NC(=O)[C@H](CCCNC(=N)N)NC(=O)[C@H](Cc1ccccc1)NC(=O)[C@H](Cc1ccc(O)cc1)NC(=O)[C@H](CCCNC(=N)N)NC(=O)[C@H](CCCNC(=N)N)NC(=O)[C@H](CCCNC(=N)N)NC(=O)[C@H](CCCNC(=N)N)NC(=O)[C@H](CCCNC(=N)N)NC(=O)[C@H](Cc1ccc(O)cc1)NC(=O)[C@H](CCCNC(=N)N)NC(=O)[C@@H](N)CCCNC(=N)N)C(=O)O,DF-1,LDH release,,"3 µM, 1 h",,viability,99.3 ± 2.91%

# A few entries again:
SMILES,cell line,assay,test system,setting,how to read,quantity,result
N=C(N)NCCC[C@H](NC(=O)[C@H](CCCNC(=N)N)NC(=O)[C@H](CCCNC(=N)N)NC(=O)[C@H](CCC(N)=O)NC(=O)[C@H](CCCNC(=N)N)NC(=O)[C@H](CCCNC(=N)N)NC(=O)[C@H](CCCCN)NC(=O)[C@H](CCCCN)NC(=O)[C@H](CCCNC(=N)N)NC(=O)CNC(=O)[C@@H](N)Cc1ccc(O)cc1)C(=O)O,DF-1,LDH release,,"25 µM, 1 h",,viability,97.7 ± 9.14%
